Experimental data gathered from unrelated publications.
Protocols differ between the studies behind these lines.
CTSL: Procathepsin L (CTSL, Homo sapiens, UniProt P07711)
Sequence of UniProt P07711 (whole entry, looked up): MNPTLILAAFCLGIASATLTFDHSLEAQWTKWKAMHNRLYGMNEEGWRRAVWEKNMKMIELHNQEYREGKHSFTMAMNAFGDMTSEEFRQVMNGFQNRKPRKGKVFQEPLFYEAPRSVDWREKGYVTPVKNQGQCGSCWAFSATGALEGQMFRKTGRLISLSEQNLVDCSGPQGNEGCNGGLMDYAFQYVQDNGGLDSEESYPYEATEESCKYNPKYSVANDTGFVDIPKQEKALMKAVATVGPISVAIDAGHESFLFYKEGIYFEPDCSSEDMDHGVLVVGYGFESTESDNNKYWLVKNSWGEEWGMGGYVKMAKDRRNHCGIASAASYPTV
Sequence of UniProt Q00535 (whole entry, looked up): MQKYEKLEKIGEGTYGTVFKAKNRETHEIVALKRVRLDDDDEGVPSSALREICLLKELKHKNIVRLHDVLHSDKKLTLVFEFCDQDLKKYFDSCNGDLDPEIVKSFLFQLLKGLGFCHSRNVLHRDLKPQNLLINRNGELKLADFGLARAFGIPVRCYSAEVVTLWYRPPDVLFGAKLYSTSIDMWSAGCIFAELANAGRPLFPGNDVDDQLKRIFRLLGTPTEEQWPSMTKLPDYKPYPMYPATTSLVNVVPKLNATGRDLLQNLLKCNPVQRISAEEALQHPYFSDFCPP
Sequence of UniProt Q8IWQ3 (whole entry, looked up): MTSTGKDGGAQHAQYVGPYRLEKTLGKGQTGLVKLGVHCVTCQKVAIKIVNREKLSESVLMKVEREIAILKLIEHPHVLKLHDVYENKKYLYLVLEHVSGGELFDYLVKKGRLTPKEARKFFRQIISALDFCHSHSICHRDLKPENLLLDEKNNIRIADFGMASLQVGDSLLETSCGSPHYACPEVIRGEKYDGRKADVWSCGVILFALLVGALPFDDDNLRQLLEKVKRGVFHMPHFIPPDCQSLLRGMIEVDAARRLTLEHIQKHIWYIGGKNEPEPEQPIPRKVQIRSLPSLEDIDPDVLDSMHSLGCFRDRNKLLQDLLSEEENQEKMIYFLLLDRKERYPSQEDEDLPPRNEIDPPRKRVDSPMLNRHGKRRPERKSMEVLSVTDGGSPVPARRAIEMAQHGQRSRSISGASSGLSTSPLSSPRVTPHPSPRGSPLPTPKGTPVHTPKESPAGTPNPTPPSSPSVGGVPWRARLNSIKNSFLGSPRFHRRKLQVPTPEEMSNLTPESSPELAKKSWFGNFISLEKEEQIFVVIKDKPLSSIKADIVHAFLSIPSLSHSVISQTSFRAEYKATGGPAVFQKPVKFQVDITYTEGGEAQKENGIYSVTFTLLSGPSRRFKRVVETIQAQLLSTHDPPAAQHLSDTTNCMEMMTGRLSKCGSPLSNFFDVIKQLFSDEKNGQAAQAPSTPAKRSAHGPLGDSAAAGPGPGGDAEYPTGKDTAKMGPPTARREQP
Sequence of UniProt O43293 (whole entry, looked up): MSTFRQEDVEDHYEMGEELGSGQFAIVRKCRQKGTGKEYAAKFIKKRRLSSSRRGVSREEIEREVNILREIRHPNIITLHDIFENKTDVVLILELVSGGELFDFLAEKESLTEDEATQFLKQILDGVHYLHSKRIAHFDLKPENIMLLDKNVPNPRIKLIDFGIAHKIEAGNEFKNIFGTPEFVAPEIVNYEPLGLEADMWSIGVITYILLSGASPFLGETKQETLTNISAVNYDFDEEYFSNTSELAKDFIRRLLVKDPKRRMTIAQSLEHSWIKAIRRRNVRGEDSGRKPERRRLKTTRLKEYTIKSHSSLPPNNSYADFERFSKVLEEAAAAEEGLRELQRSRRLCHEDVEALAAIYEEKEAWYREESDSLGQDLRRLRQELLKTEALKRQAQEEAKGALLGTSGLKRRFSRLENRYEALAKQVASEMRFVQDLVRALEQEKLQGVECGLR
Sequence of UniProt Q9Y5Y6 (whole entry, looked up): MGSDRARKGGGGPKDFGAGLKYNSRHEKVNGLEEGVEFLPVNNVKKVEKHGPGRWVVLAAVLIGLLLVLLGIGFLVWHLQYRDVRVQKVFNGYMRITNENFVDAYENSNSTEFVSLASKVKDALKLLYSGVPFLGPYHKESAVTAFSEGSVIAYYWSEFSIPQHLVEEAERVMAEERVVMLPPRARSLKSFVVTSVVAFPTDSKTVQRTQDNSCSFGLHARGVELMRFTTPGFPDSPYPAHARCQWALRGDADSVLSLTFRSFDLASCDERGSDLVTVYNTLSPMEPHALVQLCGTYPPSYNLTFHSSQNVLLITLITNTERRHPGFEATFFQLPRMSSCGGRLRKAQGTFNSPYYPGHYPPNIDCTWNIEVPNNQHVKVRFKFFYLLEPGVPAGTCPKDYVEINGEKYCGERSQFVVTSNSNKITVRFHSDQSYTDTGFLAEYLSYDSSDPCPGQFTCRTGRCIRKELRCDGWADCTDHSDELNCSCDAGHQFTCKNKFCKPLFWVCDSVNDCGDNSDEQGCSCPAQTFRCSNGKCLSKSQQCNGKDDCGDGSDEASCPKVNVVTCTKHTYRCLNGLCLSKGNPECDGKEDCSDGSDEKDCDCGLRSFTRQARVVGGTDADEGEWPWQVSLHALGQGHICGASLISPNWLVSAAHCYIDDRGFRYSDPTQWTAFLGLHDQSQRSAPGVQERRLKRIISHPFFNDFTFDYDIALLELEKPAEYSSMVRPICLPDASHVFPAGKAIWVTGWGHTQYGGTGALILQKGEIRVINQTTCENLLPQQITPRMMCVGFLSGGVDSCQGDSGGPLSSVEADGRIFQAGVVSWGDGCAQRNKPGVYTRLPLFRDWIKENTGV
Sequence of UniProt P05164 (whole entry, looked up): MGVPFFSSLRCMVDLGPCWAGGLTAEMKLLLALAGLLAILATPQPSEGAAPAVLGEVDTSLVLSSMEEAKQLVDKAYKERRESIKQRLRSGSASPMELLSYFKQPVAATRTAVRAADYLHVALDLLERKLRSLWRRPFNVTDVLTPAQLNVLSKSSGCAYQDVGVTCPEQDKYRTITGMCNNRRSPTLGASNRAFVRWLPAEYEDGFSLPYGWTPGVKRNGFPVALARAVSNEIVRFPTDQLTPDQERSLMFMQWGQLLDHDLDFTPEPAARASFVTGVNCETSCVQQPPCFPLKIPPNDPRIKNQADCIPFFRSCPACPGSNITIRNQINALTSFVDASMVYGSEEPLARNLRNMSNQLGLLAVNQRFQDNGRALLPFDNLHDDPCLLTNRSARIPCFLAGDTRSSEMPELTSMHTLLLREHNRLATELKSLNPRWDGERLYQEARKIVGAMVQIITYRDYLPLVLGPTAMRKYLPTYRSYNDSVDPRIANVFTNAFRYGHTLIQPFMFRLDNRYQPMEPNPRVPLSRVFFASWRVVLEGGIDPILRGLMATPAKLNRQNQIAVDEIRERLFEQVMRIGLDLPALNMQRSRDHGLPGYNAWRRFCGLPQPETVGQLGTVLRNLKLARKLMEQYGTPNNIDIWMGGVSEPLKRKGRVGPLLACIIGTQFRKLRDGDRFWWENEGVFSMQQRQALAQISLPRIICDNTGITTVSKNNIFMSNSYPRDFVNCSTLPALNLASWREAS
Sequence of UniProt Q14164 (whole entry, looked up): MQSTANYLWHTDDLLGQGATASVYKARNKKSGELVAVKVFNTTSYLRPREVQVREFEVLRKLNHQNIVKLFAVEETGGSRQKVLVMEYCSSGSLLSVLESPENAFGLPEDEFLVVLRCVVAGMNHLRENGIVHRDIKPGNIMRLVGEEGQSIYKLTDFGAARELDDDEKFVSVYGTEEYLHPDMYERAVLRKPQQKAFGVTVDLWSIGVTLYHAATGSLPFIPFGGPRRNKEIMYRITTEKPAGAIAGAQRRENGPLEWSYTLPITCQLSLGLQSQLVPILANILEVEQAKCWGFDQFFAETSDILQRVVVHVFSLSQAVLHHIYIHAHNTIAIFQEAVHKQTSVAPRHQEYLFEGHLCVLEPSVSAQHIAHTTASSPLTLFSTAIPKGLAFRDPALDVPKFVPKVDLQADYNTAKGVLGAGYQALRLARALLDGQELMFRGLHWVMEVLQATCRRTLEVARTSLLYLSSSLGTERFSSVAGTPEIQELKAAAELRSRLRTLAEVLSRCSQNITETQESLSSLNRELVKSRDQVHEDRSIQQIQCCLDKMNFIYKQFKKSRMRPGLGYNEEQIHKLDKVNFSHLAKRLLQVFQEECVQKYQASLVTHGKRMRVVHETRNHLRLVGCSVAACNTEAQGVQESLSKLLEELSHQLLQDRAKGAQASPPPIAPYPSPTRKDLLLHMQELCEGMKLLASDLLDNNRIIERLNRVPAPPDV
Sequence of UniProt Q9UEE5 (whole entry, looked up): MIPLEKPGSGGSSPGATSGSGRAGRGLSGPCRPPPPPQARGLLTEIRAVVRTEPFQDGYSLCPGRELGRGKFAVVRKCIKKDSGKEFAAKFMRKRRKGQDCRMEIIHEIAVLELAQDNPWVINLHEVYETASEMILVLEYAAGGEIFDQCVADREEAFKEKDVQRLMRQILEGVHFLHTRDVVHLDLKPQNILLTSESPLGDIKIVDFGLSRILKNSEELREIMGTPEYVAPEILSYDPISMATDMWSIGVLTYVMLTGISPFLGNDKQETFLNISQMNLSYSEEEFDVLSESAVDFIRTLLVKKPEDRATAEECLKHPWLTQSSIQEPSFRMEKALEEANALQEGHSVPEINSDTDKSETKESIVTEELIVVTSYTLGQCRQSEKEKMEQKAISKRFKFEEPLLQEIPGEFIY

| SMILES | target | test | conditions | quantity | value |
| --- | --- | --- | --- | --- | --- |
| CC[C@H](C)[C@H](NC(=O)[C@H](CCC(N)=O)NC(=O)[C@H](CC(C)C)NC(=O)[C@H](CCSC)NC(=O)[C@H](CCCCN)NC(=O)[C@H](CO)NC(=O)[C@H](CO)NC(=O)[C@H](CCSC)NC(=O)[C@H](CC(C)C)NC(=O)[C@H](CC(N)=O)NC(=O)[C@@H](NC(=O)[C@@H](NC(=O)[C@H](CO)NC(=O)[C@H](CC(C)C)NC(=O)[C@H](CS)NC(=O)[C@H](CCCNC(=N)N)NC(=O)[C@H](CC(=O)O)NC(=O)[C@H](Cc1c[nH]c2ccccc12)NC(=O)[C@H](Cc1ccccc1)NC(=O)[C@H](C)NC(=O)[C@H](CCC(=O)O)NC(=O)[C@@H](N)CCCCN)C(C)C)[C@@H](C)CC)C(=O)N[C@@H](CC(N)=O)C(=O)N[C@@H](C)C(=O)O | Cyclin-dependent kinase 5, with p35 (CDK5, Homo sapiens, UniProt Q00535) | enzyme activity, inhibitor, radiometric | 100 µM, 20 min | remaining activity | 71% |
| COc1ccccc1C=CC=O | CTSL | enzyme activity, inhibitor | 100 µM | remaining activity | 53% |
| CNc1ncc2c(/C=C/C(=O)N3CCC(OC)CC3)nn(Cc3cccc(C(F)(F)F)c3)c2n1 | Serine/threonine-protein kinase BRSK2 (BRSK2, Homo sapiens, UniProt Q8IWQ3) | enzyme activity, inhibitor, radiometric | 1 µM | remaining activity | 102% |
| COc1cc(-c2cncc3c2CN(C)Cc2cc(N4CCNCC4)ccc2-3)cc(OC)c1OC | Inhibitor of nuclear factor kappa-B kinase subunit epsilon (IKBKE, Homo sapiens, UniProt Q14164) | enzyme activity, inhibitor | 1 µM | remaining activity | 102% |
| NS(=O)(=O)c1ccc(CNc2ccnc(Nc3cccc(CN4CCOCC4)c3)n2)cc1 | Serine/threonine-protein kinase 17A (STK17A, Homo sapiens, UniProt Q9UEE5) | enzyme activity, inhibitor, radiometric | 1 µM | remaining activity | 93% |
| CC[C@H](C)[C@H](NC(=O)[C@H](CCC(N)=O)NC(=O)[C@@H](NC(=O)[C@H](CCSC)NC(=O)[C@H](CCCCN)NC(=O)[C@H](CO)NC(=O)[C@@H](NC(=O)[C@H](CCSC)NC(=O)[C@H](CC(C)C)NC(=O)[C@H](CC(N)=O)NC(=O)[C@@H](NC(=O)[C@@H](NC(=O)[C@H](CO)NC(=O)[C@H](CC(C)C)NC(=O)[C@H](C)NC(=O)[C@H](CCCNC(=N)N)NC(=O)[C@H](CCC(=O)O)NC(=O)[C@H](Cc1ccc(O)cc1)NC(=O)[C@H](Cc1ccccc1)NC(=O)[C@H](C)NC(=O)[C@H](CC(N)=O)NC(=O)[C@@H](N)CCCCN)[C@@H](C)CC)[C@@H](C)CC)[C@@H](C)O)C(C)C)C(=O)N[C@@H](CC(N)=O)C(=O)N[C@H](C(=O)O)C(C)C | Cyclin-dependent kinase 5, with p25 (CDK5, Homo sapiens, UniProt Q00535) | enzyme activity, inhibitor, radiometric | 50 µM, 20 min | remaining activity | 78% |
| N=C(N)NCCC[C@H](NC(=O)[C@H](CC12CC3CC(CC(C3)C1)C2)NC(=O)[C@H](Cc1cscn1)NC(=O)CCc1ccccc1)C(=O)c1nc2ccccc2s1 | Suppressor of tumorigenicity 14 protein (ST14, Homo sapiens, UniProt Q9Y5Y6) | enzyme activity, inhibitor | 0.1 µM | remaining activity | 94% |
| Cc1c(O)c(C)c2c(c1O)C(=O)C[C@@H](c1ccc(O)cc1)O2 | CTSL | enzyme activity, inhibitor | 100 µM | remaining activity | 7.42% |
| NC/C(=C\F)COc1cccc(Cn2c(=S)[nH]c(=O)c3[nH]cnc32)c1 | Myeloperoxidase (MPO, Homo sapiens, UniProt P05164) | enzyme activity, inhibitor | 5 µM | remaining activity | 1.13% |
| CC(CCC1(O)OC2CC3C4CC=C5CC(OC6OC(CO)C(OC7OC(C)C(O)C(O)C7O)C(O)C6OC6OC(C)C(O)C(O)C6O)CCC5(C)C4CCC3(C)C2C1C)COC1OC(CO)C(O)C(O)C1O (centres unmarked) | CTSL | enzyme activity, inhibitor | 100 µM | remaining activity | 119% |
| C=CC(=O)N1CCC(COCC(=O)N2CCN(c3nc(-c4cnc(N)nc4C(F)F)nc(N4CCOC[C@@H]4C)n3)CC2)CC1 | Death-associated protein kinase 3 (DAPK3, Homo sapiens, UniProt O43293) | binding, competition with immobilised ligand | 1 µM | remaining binding | 100% |

Repeated from above:
| SMILES | target | test | conditions | quantity | value |
| --- | --- | --- | --- | --- | --- |
| COc1ccccc1C=CC=O | CTSL | enzyme activity, inhibitor | 100 µM | remaining activity | 53% |
| CNc1ncc2c(/C=C/C(=O)N3CCC(OC)CC3)nn(Cc3cccc(C(F)(F)F)c3)c2n1 | Serine/threonine-protein kinase BRSK2 (BRSK2, Homo sapiens, UniProt Q8IWQ3) | enzyme activity, inhibitor, radiometric | 1 µM | remaining activity | 102% |
